Measurements from different studies.
Lines come from different studies, so protocols differ. ± marks the error that the study gave.
UniProt P0A725, sequence (whole entry, looked up): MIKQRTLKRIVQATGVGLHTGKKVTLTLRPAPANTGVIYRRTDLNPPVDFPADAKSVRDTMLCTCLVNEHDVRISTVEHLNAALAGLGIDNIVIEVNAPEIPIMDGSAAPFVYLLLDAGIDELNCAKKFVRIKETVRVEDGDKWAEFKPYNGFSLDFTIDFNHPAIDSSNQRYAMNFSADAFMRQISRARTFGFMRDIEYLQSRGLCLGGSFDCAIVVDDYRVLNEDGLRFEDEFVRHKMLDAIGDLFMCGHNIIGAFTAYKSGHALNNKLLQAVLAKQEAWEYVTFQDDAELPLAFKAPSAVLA

Compound | tested on | test | test system | conditions | endpoint | value
Cc1nc([C@H](NC(=O)c2ccc(-c3ccc(Cl)cc3)[nH]2)[C@H]2CCCCN2)sc1CO | TZM-bl | cell growth or viability, XTT | – | – | CC50 | ~24 µM
CN[C@](C)(C[18F])C(=O)O | MDA-MB-468 tumour model | – | host not given, muscle | 2 h, tumour-bearing | tracer uptake | 1.3 %ID/g
O=C(O)CCC(NP(=O)(O)OCCC[C@@H](NC(=O)CCC(NC(=O)c1ccc([18F])cc1)C(=O)O)C(=O)O)C(=O)O (stereo partly shown) | CWR22Rv1 tumour model | – | host not given, liver | intravenous, 2 h, tumour-bearing | tracer uptake | 0.5 %ID/g
COc1ccc(CNc2nc(N3CCC[C@H]3CO)ncc2C(=O)NNC(=O)c2cnc(N3CCC[C@H]3CO)nc2NCc2ccc(OC)c(Cl)c2)cc1Cl | Salmonella typhimurium | – | TA97a | 1000 µg/plate, 48 h | revertant count | 57 ± 6
Nc1nc2c([C@@H]3O[C@@H]4COP(=O)(O)O[C@H]5[C@@H](O)[C@H](n6cnc7c(=O)[nH]c(N)nc76)O[C@@H]5COP(=O)(O)O[C@H]4[C@H]3O)scc2c(=O)[nH]1 | – | – | water | – | emission maximum | 458 nm
COc1cc(C(=O)NCCOCCOCCOCCNC(=O)c2ccc([18F])nc2)ccc1NC(=O)C1NC(CC(C)(C)C)C(C#N)(c2ccc(Cl)cc2F)C1c1cccc(Cl)c1F (stereo not shown) | SJSA-1 tumour model | – | host not given, kidney | 1 h, tumour-bearing | tracer uptake | 3.95 %ID/g
O=C(O)CCC(NP(=O)(O)OCCC[C@@H](NC(=O)CCC(NC(=O)CCCCCNC(=O)CCCCCNC(=O)c1ccc([18F])cc1)C(=O)O)C(=O)O)C(=O)O (stereo partly shown) | CWR22Rv1 tumour model | – | host not given, tumour | intravenous, 2 h, tumour-bearing | tracer uptake | 1.86 %ID/g
O=C(/C=C/c1ccc(O)c2oc(-c3ccc(O)c(O)c3)cc12)O[C@H](Cc1ccc(O)c(O)c1)C(=O)O | – | – | human | dose not given, 48 (unit not given) | CC50 | > 100 µM
C[C@@](O)(C(F)F)[C@H](NC(=O)c1ccc(C#CC#CC2CC2)cc1)C(=O)NO | UDP-3-O-acyl-N-acetylglucosamine deacetylase (Escherichia coli K-12, UniProt P0A725) | rapid equilibrium dialysis | mouse plasma | 10 µM, without LpxC in buffer | buffer to plasma concentration ratio | 0.033 ± 0.001
CCC(=O)N(C)c1ccc(Cl)c(Cl)c1 | Salmonella typhimurium | Ames test | TA100 | 0.50 mg/plate, without S9 | revertant colonies | 59 ± 16.8 revertants/plate
COc1ccc(CNc2nc(N3CCC[C@H]3CO)ncc2C(=O)NN)cc1Cl | Salmonella typhimurium | – | TA102 | 62.5 µg/plate, with: rat liver S9 | revertant count | 270 ± 5
CCCCCc1cc(OC(=O)C(NC(=O)CCC(=O)O)C(C)C)c2c(c1)OC(C)(C)C1CCC(C)=CC21 (stereo not shown) | – | – | isolated rabbit cornea | 3 h, pH 7.4, 34 °C, donor Cremophor RH sample A 0.05%, BAK 0.02%, EDTA 0.1% | Papp | 2.8 ± 0.3 ×10⁻⁶ cm/s
O=P(O)(O)Oc1ccc(Oc2ccc(S(=O)(=O)CC3CS3)cc2)cc1 (racemic) | – | – | mouse, plasma | intravenous, 7.8 mg/kg, single dose | Vd | 0.185 L/kg

For quick reference, copied from above:
Compound | tested on | test | test system | conditions | endpoint | value
O=C(O)CCC(NP(=O)(O)OCCC[C@@H](NC(=O)CCC(NC(=O)CCCCCNC(=O)CCCCCNC(=O)c1ccc([18F])cc1)C(=O)O)C(=O)O)C(=O)O (stereo partly shown) | CWR22Rv1 tumour model | – | host not given, tumour | intravenous, 2 h, tumour-bearing | tracer uptake | 1.86 %ID/g
